Results pooled from the literature.
Parts stem from different laboratories: compare values within a part only. Substitutions count along the parent as printed.

Set 1
Target: Interferon regulatory factor 7, full length, phosphomimetic (IRF7, Homo sapiens, UniProt Q92985, residues 1-503, S471D/S472D/S475D/S476D/S477D/S483D/S484D/S487D)
Technique: protein-binding microarray
Molecule type: double-stranded DNA, one strand shown
Medium: in vitro
Concentration: 2200 nM top
Setting: 60-bp whole probe
With: salmon DNA 0.4 mg/ml
Reference: random background probes
Reading: higher = stronger binding
Measurement: fitted relative affinity
Constant ends, left off below: GCCTAGCAC … GTCTTGATTCGCTTGACGCTGCTG
Residues (chain): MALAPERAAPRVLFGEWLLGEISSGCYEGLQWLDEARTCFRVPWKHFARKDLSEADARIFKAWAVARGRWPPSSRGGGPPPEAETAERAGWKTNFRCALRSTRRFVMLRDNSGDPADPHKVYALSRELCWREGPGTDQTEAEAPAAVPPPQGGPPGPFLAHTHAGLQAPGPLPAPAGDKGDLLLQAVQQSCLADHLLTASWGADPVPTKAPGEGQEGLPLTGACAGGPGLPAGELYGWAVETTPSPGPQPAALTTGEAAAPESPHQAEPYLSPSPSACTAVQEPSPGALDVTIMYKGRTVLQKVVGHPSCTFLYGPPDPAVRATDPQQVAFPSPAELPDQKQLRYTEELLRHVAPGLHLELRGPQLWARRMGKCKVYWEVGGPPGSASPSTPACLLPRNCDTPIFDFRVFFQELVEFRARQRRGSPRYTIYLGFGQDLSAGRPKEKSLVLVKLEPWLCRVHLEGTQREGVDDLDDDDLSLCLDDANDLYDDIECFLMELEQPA
GACGGTCTGGGGTATCGGGACGTGCTA: -0.791 z-score
GATGATATCAGTTTCGAGACGTGCTAG: 3.89 z-score
TTCGGACTGGGTCTCGGTTAGTGCTAG: 0.0888 z-score
GACGGTCGCCTTCTCCTGACGTGCTAG: 0.382 z-score
TTAGGTTTCGGGACTCGGTTAGTGCTA: 4.7 z-score
TCACTCCTATCTTATGATACTGTGCTA: 1.6 z-score
TTAGAACTGGGGTTTCAATTAGTGCTA: 0.0399 z-score
TTAGGTATCGGGACTGGGTTGGTGCTA: -0.291 z-score
GACGACATCAGTATCGAGACGTGCTAG: 0.0945 z-score
TTAGGTATCGGACAGGGTTAGTGCTAG: 0.00185 z-score
TTACGACTGGGGTTTCGGTTAGTGCTA: 3.7 z-score
CATTCTCTGCTTCTGTATGGGTGCTAG: 2.1 z-score
TCATTTCTCTGCTACCCTACTGTGCTA: 2.81 z-score
AGGCATGTGGGTTCCATCATGTGCTAG: -0.0896 z-score
AACGGTTCCCTTTTCCTGACGTGCTAG: 2.65 z-score
TCAGGAGTCATTCTCAAACTGTGCTAG: -0.205 z-score
TTAGGACTCGACTATCGGTTAGTGCTA: -0.0446 z-score

Set 2
Target: RNA binding protein fox-1 homolog 2, RRM domain, GST-SBP tag (RBFOX2, Homo sapiens, UniProt O43251-10, residues 100-194)
Technique: RNA Bind-n-Seq
Molecule type: RNA
Medium: in vitro
Concentration: 365 nM
Setting: natural RNA segment, single round, ends assumed
Reference: no-protein control
Reading: higher = stronger binding
Measurement: RBNS enrichment (R)
Constant ends, left off below: GGGAGUUCUACAGUCCGACGAUC … UGGAAUUCUCGGGUGCCAA
Target sequence (chain): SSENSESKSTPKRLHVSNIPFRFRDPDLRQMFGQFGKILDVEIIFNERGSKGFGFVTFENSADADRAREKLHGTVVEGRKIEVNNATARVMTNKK
UCUGGCUUCUGCAGGGGAAAUUUCAAGGCCACUGGCGUGGACCAUCUGGGUGUCCUCAGCCCCUGUGGGGCAGCCAAGUUCCUGAUAGCACUUGUGCCUCAGCCCCUCAC: 0.301
UGUACUUUGAAGAAUGGAAUUGUAUUAGUCAGCCUGUUAAUGCCACUUCAGAGUUUGGGGUUUUGUCUUGAUUGUAGAUUGGCCCAGAAUUGCAUUCUGAUGAAUAAAGG: 2.32
AAAAGGGAGAGAGAAAAGACAGGAACUGAUGAGAUAGUUUGAAAGCUGAAGGAGUUCUGAGUUUGUUUAGUUCUUUAUUCCAUCUCUGUGCGGCCUCCCGAGCCUACGUU: 1.46
CACCACCUAGCCAUAGUCUCAAACCUGUGGGGAAGGAGGUUUUCUCCCUGCCCGGGAAGAGGACAGAUAACUGAUUUCCGUUCUUUUGACUGUGUUUUAAAAUUCUCUUU: 0.206
AAAAAAAUGUGUUUGAACUAUAUUGUAUGUAAUUUGGAAGUCGUGUUAAUAAAACCCUGCAGUUUCCACUCUGGUUCCGUAGCCUUCAUUUUGUCUGGGCGCUCAGGUCG: 4.23
AACGCCUUCACUGGAUCAGCCGCUGGAACUGAGGGAGUGAGCUUGGGGACUUCCUUCGUCAGCACUGGCUUUCUGUUUUCACAAGACAGACGUCUGUCCCGCUGCUCUCU: 0.393
GGCCCGUCCUCGGGGGGCUGCGCACAUCACGCUCCUUGCCGGGCGUCCGGCACAGCUGCGGUCACCAAAGCAGGUGCUGGCCCUCGGACCUGAGAGCCCAGCCAGGGCCC: 0.231
UGAUGCUGUAUUUUCACAACUCUGAGGAAACGUCUGGGAACUCCUAGGGGUAGGCGAUUGACUGCCUGAUUUUAGAGCAGGGAGCCCGGCCCCUUCUUUUGUCUUCCUGG: 0.302

Set 3
Target: Fragile X messenger ribonucleoprotein 1, C-terminal low-complexity region (Fmr1, Mus musculus, UniProt P35922)
Technique: RNA Bind-n-Seq
Molecule type: RNA
Medium: in vitro
Concentration: 200 nM
Setting: whole 134-nt RNA, ends assumed
With: 150 mM KCl
Reference: input library
Reading: higher = stronger binding
Measurement: log2 enrichment
Constant ends, left off below: GGGAGUUCUACAGUCCGACGAUC … UGGAAUUCUCGGGUGUCAAGG
AAGUCCUGUGCUACACAUCGUAUGUACCGAAUCAAAUUUAAAUUUAAACCCCCAAAAAAGUAUUAUGUUACGCCGUUCGGAUCUGCACUU: 0.227
CCUGUGCUACACAUCGUAUGUACCGAAUCGGGGAAAAAAGGGGAAAAAAGGAAAAAAGGGGAAAGUAUUAUGUUACGCCGUUCGGAUCUG: -0.497
GUCCUGUGCUACACAUCGUAUGUACCGAAUCGGGAAAGGGAAAAAGGGUUUUUUUGGGAAAGUAUUAUGUUACGCCGUUCGGAUCUGCAC: -0.323
GACUCUGAAGAAGAAGCUAUGGAGACUACACCAGCCAAAGGAAAGAAAGCUGCAAAAGUUGUUCCUGUGAAAGCCAAGAACGUGGCUGAG: -1.43
UGGGAGGUGGAUUUGGUUUAUUUUUUUAGCUCAUUUCCAGGGGUGGGAAUUUUUUUUUAAUAUGUGUCAUGAAUAAAGUUGUUUUUGAAA: 0.17
UUCCUCAAGUCCUGUGCUACACAUCGUAUGUACCGAAUCGGAGGAGGAGGGAAAGUAUUAUGUUACGCCGUUCGGAUCUGCACUUCCAGC: -0.727
GCAGGAAGUAAAAACAAAUGGAAAUGCUUCGGAUAGUGGCAGGGGUGGGGGUUGCUAAGGAAAGGGUGGGAUGAGAGUGGGUAAAGAGUU: 0.114
UAACUUUAGAGGAGGAUCUGAUGGAUAUGGCAGUGGACGUGGAUUUGGGGAUGGCGAUAAUGGGUAUGGAGGAGGACCUGGAGGUGGCAA: 0.151
AGUCCUGUGCUACACAUCGUAUGUACCGAAUCGGGGAGGGGAAAAAAAGGGGAGGGGAAAGUAUUAUGUUACGCCGUUCGGAUCUGCACU: 0.72

Set 4
Target: CCNB2, cyclin fold, Cln2 fusion (human)
Technique: yeast growth competition, sequencing
Medium: yeast
Setting: weak parent motif
Reference: not given
Reading: higher = stronger binding
Measurement: normalised enrichment score
Parent: E2F1 docking peptide (human); PPVKRRLDLETDH; partner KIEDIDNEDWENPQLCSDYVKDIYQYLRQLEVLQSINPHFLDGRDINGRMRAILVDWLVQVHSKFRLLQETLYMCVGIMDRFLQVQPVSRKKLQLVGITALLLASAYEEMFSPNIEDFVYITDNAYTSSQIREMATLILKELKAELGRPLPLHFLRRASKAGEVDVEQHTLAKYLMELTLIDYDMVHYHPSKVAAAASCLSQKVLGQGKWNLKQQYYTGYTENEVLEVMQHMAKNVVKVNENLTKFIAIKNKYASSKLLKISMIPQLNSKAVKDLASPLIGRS
PPIKRRLDLETDH [V3I]: 0.387
PPVKRRVDLETDH [L7V]: -0.0472
PPVKRRDDLETDH [L7D]: 0.0672
IPVKRRLDLETDH [P1I]: 0.161
PPVNRRLDLETDH [K4N]: 0.335
PPVKRRLDLERDH [T11R]: 0.308
PPVSRRLDLETDH [K4S]: -0.00712
PYVKRRLDLETDH [P2Y]: 0.561
DPVKRRLDLETDH [P1D]: 0.409
PPVFRRLDLETDH [K4F]: 0.0719
PPVKRRLCLETDH [D8C]: 0.256
PPVKRRLDLETDF [H13F]: 0.606
PPVARRLDLETDH [K4A]: 0.334
PPVKRRLDLETIH [D12I]: 0.0476
PPVKRDLDLETDH [R6D]: -0.586
PPVKRRLDLECDH [T11C]: 0.338
PTVKRRLDLETDH [P2T]: 0.111
PPVKLRLDLETDH [R5L]: -0.186
PPVKHRLDLETDH [R5H]: -0.0578
PPVKRRLDLEYDH [T11Y]: 1.42
PPAKRRLDLETDH [V3A]: 0.899
PPVTRRLDLETDH [K4T]: -0.554
PPVKMRLDLETDH [R5M]: -0.29
PPVKRPLDLETDH [R6P]: -0.261

Some of these lines once more (set 1):
TCAGGAGTCATTCTCAAACTGTGCTAG: -0.205 z-score
GACGGTCGCCTTCTCCTGACGTGCTAG: 0.382 z-score
GATGATATCAGTTTCGAGACGTGCTAG: 3.89 z-score
TTAGAACTGGGGTTTCAATTAGTGCTA: 0.0399 z-score
GACGGTCTGGGGTATCGGGACGTGCTA: -0.791 z-score
TTAGGTATCGGGACTGGGTTGGTGCTA: -0.291 z-score
TCATTTCTCTGCTACCCTACTGTGCTA: 2.81 z-score
